Results from different studies.
Each numbered part is a random draw from the data of one study; scales do not carry over between parts. Substitutions count along the parent as printed.

Sample 1
Target: inorganic phosphate, free oxyanion
Technique: microfluidic competitive inhibition
Medium: in vitro, cell-free expressed
Concentration: not given
Notes: derived from inhibition constants, unchanged parent 615000 nM
Direction: lower = stronger binding
Endpoint: phosphate dissociation constant
Starting sequence: PafA, mature enzyme, eGFP fusion (Elizabethkingia meningoseptica, UniProt Q9KJX5); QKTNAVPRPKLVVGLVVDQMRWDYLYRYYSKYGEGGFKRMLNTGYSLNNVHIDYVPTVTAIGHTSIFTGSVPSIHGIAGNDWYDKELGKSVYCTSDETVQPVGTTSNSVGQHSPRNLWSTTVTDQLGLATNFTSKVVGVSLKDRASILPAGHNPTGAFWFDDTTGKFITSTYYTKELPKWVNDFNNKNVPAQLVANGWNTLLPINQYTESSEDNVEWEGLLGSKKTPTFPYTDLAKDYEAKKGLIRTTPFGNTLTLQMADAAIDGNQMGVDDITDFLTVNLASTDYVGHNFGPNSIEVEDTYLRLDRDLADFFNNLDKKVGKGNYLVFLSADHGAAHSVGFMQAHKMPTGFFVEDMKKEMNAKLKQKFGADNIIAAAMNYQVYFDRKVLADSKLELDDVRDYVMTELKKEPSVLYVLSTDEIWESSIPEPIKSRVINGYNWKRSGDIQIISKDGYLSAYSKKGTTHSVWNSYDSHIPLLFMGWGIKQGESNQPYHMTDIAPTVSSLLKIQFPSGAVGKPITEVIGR
Substitution = I524G; result = 424 µM
Substitution = I431V; result = 565 µM
Substitution = N186G; result = 545 µM

Sample 2
Target: CRIPT, C-terminal peptide
Technique: DHFR complementation, deep sequencing
Medium: yeast
Notes: single substitutions, model-inferred values
Reference: wild type
Direction: higher = weaker binding
Endpoint: binding free energy change
Starting sequence: ERBIN, PDZ domain 1 (human); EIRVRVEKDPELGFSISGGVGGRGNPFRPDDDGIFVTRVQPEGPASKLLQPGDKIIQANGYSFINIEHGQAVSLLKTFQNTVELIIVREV; partner TKNYKQTSV
Substitution = G24R; result = 1.35 kcal/mol
Substitution = L48M; result = 0.0489 kcal/mol
Substitution = K54M; result = 0.162 kcal/mol
Substitution = V4P; result = 0.719 kcal/mol
Substitution = K8Y; result = 0.604 kcal/mol
Substitution = S46E; result = 0.0616 kcal/mol
Substitution = E67N; result = 0.244 kcal/mol
Substitution = E1K; result = 0.0411 kcal/mol

Sample 3
Target: NFE2, bZIP domain (human)
Technique: DHFR protein complementation
Medium: yeast
Notes: single substitutions, most at no-binding floor
Reference: wild-type JUN-FOS pair
Direction: higher = stronger binding
Endpoint: binding fitness
Starting sequence: JUN, bZIP domain (human); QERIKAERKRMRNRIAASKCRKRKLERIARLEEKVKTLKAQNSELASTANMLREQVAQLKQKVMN; partner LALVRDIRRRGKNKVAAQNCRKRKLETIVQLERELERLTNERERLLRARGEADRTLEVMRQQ
Substitution = A40D; result = -1.49 natural log
Substitution = T48S; result = -1.35 natural log
Substitution = L45F; result = -1.44 natural log
Substitution = A49M; result = -1.46 natural log
Substitution = T37Y; result = -1.56 natural log
Substitution = E44W; result = -1.39 natural log
Substitution = K36L; result = -1.51 natural log
Substitution = R53A; result = -1.17 natural log

Sample 4
Target: UDP-N-acetylglucosamine--peptide N-acetylglucosaminyltransferase 110 kDa subunit (OGT, Homo sapiens, UniProt O15294)
Effect on: binding
Technique: phage display NGS
Molecule type: peptide
Concentration: concentration not given
Reference: input library
Endpoint: enrichment fold change
Target sequence (O15294 1-1046): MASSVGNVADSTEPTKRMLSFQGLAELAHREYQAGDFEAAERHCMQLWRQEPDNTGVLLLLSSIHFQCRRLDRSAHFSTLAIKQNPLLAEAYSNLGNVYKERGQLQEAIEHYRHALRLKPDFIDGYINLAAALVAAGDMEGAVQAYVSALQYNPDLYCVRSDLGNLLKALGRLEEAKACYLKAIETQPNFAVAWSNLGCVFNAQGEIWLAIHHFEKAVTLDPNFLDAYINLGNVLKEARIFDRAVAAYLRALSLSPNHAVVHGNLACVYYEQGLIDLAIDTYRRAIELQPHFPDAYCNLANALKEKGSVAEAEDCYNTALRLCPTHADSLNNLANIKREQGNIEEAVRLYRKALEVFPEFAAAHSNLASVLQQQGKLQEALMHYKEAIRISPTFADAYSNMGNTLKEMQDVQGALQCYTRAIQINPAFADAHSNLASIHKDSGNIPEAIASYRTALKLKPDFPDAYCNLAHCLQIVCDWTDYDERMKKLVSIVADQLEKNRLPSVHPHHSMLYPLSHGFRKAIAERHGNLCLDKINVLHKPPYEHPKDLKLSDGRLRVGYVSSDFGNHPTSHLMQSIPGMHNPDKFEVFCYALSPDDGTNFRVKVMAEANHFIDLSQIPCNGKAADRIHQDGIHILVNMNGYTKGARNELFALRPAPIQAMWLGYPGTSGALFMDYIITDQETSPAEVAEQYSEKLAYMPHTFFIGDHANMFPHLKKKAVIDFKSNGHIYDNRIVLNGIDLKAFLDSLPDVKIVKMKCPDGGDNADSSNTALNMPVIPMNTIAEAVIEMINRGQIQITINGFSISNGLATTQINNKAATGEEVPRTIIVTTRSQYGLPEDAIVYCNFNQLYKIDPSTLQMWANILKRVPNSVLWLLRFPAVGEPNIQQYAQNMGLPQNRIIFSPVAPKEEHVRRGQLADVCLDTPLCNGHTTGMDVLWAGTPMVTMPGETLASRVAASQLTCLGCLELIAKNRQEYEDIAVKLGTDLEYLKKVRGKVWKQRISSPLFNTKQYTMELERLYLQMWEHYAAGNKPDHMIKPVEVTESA
Molecule = THIMTGHHGPIKGRD; result = 3.77
Molecule = TWEWPYHRHMQHPFA; result = 15
Molecule = HTRADFHHFHHDVEQ; result = 6.02
Molecule = TIIHHTSTANRQHAS; result = 7.32

Sample 5
Target: CCNE2, cyclin fold, Cln2 fusion (human)
Technique: yeast growth competition, sequencing
Medium: yeast
Notes: strong parent motif
Reference: not given
Direction: higher = stronger binding
Endpoint: normalised enrichment score
Starting sequence: viral docking peptide; TSVRRALFTGGSD; partner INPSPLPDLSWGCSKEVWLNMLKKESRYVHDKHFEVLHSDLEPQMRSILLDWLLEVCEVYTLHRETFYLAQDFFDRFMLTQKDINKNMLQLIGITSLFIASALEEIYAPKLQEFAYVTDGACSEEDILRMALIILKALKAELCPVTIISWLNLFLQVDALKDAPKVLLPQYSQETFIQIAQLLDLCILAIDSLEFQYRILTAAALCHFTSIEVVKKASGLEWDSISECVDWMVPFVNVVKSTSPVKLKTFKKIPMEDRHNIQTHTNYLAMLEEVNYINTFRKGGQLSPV
Substitution = G11S; result = 3.96
Substitution = V3L; result = 0.217
Substitution = G10I; result = 3.16
Substitution = L7T; result = 0.179
Substitution = G11Y; result = 3.56
Substitution = S2Q; result = 3.33
Substitution = V3N; result = 0.0365
Substitution = G10E; result = 5.5
Substitution = T1A; result = 4.59
Substitution = L7F; result = 0.22
Substitution = V3E; result = 0.222
Substitution = R4L; result = 0.722
Substitution = R5Y; result = 0.127
Substitution = T9W; result = 2.2
Substitution = R5C; result = 0.435
Substitution = R5P; result = -0.513
Substitution = T9L; result = 3.31
Substitution = L7R; result = 0.562
Substitution = L7P; result = 0.221
Substitution = S12D; result = 4.68
Substitution = S12G; result = 3.76
Substitution = A6D; result = 0.545
Substitution = R5D; result = -0.24
Substitution = L7W; result = 0.148
Substitution = R5K F8L; result = 0.217

Sample 6
Target: Histone acetyltransferase KAT6A, winged helix 1, GST fusion (KAT6A, Homo sapiens, UniProt Q92794, residues 1-85)
Technique: protein binding microarray
Molecule type: double-stranded DNA, one strand shown
Medium: in vitro
Concentration: not given
Notes: 8-mer, flanks averaged, mean of 2 arrays, mostly near background
Reference: not given
Direction: higher = stronger binding
Endpoint: E-score
Residues (chain): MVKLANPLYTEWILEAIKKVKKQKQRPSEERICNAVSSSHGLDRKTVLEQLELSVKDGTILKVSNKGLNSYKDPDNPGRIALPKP
Strand = CAATAGAA; result = -0.06
Strand = ACGTAGCT; result = -0.0747
Strand = GACACAGC; result = 0.0596
Strand = ACTAGGTA; result = -0.183
Strand = ACTACTAT; result = -0.128
Strand = GATTAGCA; result = -0.0055
Strand = CAGTGATA; result = -0.19
Strand = CGAAGTAC; result = 0.0985

Excerpt of the above (sample 3):
Substitution = A40D; result = -1.49 natural log
Substitution = T48S; result = -1.35 natural log
Substitution = L45F; result = -1.44 natural log
Substitution = A49M; result = -1.46 natural log
Substitution = T37Y; result = -1.56 natural log
Substitution = E44W; result = -1.39 natural log
Substitution = K36L; result = -1.51 natural log
